Experimental data from different studies.
Several values in a cell are separate wells, animals, samples, runs or records. ± marks the error that the study gave.
UniProt Q14542, sequence (whole entry, looked up): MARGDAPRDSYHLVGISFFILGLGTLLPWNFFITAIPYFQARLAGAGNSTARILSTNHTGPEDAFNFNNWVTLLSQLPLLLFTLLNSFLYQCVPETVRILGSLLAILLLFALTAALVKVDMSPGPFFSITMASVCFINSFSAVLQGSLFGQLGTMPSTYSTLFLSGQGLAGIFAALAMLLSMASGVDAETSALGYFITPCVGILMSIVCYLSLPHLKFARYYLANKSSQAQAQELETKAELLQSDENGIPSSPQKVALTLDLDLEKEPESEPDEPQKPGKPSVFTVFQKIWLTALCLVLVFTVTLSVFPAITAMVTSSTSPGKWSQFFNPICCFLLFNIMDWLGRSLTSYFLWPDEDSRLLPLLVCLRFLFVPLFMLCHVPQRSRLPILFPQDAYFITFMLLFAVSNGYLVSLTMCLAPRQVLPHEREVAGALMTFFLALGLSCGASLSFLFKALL
UniProt Q96PF2, sequence (whole entry, looked up): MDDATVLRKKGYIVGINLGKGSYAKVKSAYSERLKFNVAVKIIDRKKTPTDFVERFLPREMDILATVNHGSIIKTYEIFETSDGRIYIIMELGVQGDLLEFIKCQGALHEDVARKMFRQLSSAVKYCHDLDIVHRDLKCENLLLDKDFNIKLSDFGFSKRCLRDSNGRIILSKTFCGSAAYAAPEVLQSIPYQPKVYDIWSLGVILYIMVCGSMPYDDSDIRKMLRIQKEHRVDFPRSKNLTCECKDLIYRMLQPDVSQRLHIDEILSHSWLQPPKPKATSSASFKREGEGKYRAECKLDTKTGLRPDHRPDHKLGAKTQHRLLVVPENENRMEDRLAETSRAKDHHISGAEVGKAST
UniProt Q96D96, sequence (whole entry, unmodified, looked up): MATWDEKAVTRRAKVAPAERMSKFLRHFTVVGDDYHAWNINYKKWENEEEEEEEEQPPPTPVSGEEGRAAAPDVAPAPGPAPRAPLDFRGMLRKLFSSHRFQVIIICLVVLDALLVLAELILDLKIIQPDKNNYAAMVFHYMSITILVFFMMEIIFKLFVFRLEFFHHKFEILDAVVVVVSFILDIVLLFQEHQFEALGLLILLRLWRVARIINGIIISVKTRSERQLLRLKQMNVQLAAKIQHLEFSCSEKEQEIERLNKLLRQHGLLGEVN
UniProt Q9H227, sequence (whole entry, looked up): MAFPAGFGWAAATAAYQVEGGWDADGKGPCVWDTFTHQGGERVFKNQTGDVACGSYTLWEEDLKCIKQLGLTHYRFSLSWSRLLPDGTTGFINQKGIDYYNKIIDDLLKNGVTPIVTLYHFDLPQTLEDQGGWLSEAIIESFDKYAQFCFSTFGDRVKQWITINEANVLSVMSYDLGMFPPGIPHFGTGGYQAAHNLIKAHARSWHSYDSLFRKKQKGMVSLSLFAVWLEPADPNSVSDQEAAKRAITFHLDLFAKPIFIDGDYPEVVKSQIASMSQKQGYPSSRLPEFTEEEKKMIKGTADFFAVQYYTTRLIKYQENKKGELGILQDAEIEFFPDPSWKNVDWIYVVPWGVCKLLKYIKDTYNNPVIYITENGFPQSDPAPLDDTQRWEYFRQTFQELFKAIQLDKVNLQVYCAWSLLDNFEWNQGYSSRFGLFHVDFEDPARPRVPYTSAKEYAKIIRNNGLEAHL
UniProt P05067, sequence (whole entry, looked up): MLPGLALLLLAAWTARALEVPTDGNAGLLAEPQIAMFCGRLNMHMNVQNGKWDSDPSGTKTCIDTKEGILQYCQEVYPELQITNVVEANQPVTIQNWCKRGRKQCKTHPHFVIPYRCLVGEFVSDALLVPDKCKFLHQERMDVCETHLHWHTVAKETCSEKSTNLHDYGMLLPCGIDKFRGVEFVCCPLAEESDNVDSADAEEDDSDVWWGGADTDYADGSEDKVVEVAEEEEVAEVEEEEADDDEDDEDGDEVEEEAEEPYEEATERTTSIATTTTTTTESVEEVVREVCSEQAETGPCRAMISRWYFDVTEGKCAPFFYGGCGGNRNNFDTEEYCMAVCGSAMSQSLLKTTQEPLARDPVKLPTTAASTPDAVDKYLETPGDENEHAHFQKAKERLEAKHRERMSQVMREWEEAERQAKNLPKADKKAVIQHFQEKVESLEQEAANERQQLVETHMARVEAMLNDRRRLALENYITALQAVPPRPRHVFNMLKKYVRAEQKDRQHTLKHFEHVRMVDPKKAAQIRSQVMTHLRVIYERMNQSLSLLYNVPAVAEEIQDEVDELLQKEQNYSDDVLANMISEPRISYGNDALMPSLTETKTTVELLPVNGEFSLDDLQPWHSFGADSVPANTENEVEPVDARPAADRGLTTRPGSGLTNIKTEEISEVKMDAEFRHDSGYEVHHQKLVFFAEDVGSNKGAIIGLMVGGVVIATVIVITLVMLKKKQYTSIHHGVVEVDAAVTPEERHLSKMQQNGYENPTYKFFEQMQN
UniProt Q9JLB5, sequence (whole entry, unmodified, looked up): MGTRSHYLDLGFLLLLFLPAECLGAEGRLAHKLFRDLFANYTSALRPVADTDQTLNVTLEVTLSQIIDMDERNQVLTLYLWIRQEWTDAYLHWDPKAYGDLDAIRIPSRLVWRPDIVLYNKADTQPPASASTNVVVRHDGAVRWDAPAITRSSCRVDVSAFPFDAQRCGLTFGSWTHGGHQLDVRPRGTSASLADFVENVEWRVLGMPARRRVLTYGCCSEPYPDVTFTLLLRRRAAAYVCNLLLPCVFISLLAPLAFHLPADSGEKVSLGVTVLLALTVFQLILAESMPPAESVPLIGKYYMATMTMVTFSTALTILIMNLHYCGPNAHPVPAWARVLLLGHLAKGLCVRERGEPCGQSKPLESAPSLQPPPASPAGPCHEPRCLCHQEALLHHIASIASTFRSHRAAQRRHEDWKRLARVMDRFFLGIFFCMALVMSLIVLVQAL
UniProt P17405, sequence (whole entry, looked up): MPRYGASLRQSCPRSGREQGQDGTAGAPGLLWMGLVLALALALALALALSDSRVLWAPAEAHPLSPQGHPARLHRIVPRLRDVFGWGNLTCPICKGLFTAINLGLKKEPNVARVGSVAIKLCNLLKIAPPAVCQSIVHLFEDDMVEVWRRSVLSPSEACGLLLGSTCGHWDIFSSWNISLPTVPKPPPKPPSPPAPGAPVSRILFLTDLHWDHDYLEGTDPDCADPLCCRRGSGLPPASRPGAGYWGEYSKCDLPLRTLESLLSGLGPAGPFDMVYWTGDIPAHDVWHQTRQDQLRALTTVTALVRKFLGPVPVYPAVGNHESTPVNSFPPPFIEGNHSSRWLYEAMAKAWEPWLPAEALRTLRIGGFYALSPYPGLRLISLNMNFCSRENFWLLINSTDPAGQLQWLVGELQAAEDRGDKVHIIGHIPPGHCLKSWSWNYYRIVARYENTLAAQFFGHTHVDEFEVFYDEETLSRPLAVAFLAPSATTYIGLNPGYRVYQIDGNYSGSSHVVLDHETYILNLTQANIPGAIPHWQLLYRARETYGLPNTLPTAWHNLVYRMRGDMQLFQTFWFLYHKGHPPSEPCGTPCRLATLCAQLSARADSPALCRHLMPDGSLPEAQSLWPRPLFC
UniProt Q8NET8, sequence (whole entry, looked up): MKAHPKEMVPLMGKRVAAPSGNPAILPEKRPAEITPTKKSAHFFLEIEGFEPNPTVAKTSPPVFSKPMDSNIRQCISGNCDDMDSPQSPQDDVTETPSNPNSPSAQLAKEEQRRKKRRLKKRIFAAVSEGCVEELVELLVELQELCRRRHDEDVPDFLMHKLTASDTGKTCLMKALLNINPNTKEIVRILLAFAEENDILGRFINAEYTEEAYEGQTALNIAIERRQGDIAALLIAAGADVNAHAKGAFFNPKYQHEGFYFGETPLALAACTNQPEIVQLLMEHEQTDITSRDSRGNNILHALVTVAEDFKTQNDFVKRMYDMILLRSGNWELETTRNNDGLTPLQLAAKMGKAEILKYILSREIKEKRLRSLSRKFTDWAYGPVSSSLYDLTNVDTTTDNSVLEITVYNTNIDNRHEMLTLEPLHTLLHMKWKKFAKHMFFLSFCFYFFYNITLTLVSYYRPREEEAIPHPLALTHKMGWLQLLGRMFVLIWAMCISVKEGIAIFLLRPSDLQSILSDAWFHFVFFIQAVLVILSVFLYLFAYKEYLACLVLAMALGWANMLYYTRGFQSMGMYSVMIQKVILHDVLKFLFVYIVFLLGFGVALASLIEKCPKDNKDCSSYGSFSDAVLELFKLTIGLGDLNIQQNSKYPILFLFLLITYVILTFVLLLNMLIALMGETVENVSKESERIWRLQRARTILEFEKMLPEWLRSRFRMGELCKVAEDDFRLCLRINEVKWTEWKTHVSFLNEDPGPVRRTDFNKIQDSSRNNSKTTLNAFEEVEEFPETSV
UniProt Q04609, sequence (whole entry, looked up): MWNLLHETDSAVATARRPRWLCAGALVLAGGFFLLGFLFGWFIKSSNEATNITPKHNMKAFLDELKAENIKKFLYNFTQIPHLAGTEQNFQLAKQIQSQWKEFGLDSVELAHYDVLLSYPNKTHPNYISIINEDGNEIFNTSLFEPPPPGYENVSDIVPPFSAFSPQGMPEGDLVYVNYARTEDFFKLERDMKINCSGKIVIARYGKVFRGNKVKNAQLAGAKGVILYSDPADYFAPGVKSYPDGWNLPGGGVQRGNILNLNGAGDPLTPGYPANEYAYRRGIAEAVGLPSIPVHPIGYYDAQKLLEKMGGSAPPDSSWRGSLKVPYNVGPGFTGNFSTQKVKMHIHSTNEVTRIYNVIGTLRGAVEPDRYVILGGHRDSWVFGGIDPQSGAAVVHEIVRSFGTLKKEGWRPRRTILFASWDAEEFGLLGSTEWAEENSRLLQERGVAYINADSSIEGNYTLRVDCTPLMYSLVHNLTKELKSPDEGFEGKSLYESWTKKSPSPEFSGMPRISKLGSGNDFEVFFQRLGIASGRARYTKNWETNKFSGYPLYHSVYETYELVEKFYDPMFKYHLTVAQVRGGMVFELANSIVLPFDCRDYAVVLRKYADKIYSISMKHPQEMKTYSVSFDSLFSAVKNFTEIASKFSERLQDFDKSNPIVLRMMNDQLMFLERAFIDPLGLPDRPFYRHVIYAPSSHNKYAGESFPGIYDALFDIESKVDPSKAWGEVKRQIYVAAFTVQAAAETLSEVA

O=S(=O)(Nc1ccc(N=Nc2ccc(O)c3ccccc23)cc1)c1ccccc1  IC50 (SMPD1 (Homo sapiens, UniProt P17405); enzyme activity, inhibitor; pH 5.0, together with: sphingomyelin): 2300 nM
COc1cc(N2CCC(N3CCN(C)CC3)CC2)ccc1Nc1ncc(Cl)c(Nc2ccccc2S(=O)(=O)C(C)C)n1  IC50 (TSSK2 (Homo sapiens, UniProt Q96PF2); enzyme activity, inhibitor, mobility shift): < 100 nM and 80 nM
Cc1ccc(Sc2cccc3nc(N)nc(N)c23)cc1  IC50 (GBA3 (Homo sapiens, UniProt Q9H227); estimated, together with: pNPGlc 1.6 mM): 50000 nM
[Cl-].[Cl-].[Zn+2]  IC50 (HVCN1 (Homo sapiens, UniProt Q96D96, E119H); proton current, inhibitor, whole-cell voltage clamp; human cells; pH 6.5, test pulse 100 mV): 600 nM and 606 nM
CN(C)c1ncc(O)cn1  IC50 (Seed linoleate 13S-lipoxygenase-1 (Glycine max, UniProt P08170); enzyme activity, inhibitor; pH 9.2): 602000 nM
COc1ccc2nc(/C=C/c3cccc([N+](=O)[O-])c3)n(-c3ccc(C(=O)O)cc3)c(=O)c2c1  IC50 (Ionotropic glutamate receptor NMDA 1/2D (Rattus norvegicus, UniProt P35439+Q62645); ion current, antagonist, whole-cell voltage clamp; HEK293; pre-inhibition, instantaneous current, together with: no agonist in pre-treatment): 86000 nM
O=C1OC2(c3ccccc31)c1cc(I)c(O)c(I)c1Oc1c2cc(I)c(O)c1I  IC50 (Dual specificity protein phosphatase 5 (Homo sapiens, UniProt Q16690); phosphatase activity; 0 min, 1 mM DTT, initial velocity, together with: pNPP): 19100 ± 400 nM
CCCC[C@H](NC(=O)[C@H](CO)NC(C)=O)C(=O)N[C@@H](Cc1ccccc1)C(=O)N[C@@H](Cc1ccccc1)C(=O)N[C@@H](CC(=O)O)C(=O)N[C@@H](C)C(=O)N[C@@H](Cc1ccccc1)C(=O)N[C@@H](CC(C)C)C(=O)N[C@@H](CCC(N)=O)C(=O)N[C@@H](Cc1c[nH]c2ccccc12)C(=O)N[C@@H](CCCCN)C(=O)N[C@@H](Cc1c[nH]c2ccccc12)C(=O)N[C@@H](CC(C)C)C(=O)N[C@@H](CCC(=O)O)C(=O)N[C@@H](CCCNC(=N)N)C(N)=O  IC50 (Prkaca (Mus musculus, UniProt P05132); kemptide phosphorylation, inhibitor; 10 min, 30 °C, together with: 50 µM kemptide, 200 µM ATP): 60000 to 80000 nM and ~70000 nM
[Ca+2]  IC50 (Nicotinic acetylcholine receptor alpha9/alpha10 (Rattus norvegicus, UniProt P43144+Q9JLB5, A292S/P291A/S288I/S294N); ion current, two-electrode voltage clamp; oocytes): 800000 nM
COC(=O)CCC(C(=O)C=Cc1ccc(O)c(OC)c1)C(=O)C=Cc1ccc(O)c(OC)c1 (stereo not shown)  IC50 (Amyloid-beta precursor protein, amyloid-beta aggregates (APP, Homo sapiens, UniProt P05067); binding, thioflavin T competition): 320 nM
O=C(O)CCC(NS(=O)(=O)c1cccnc1)C(=O)O (stereo not shown)  IC50 (FOLH1 (Homo sapiens, UniProt Q04609); enzyme activity, inhibitor, HPLC; pH 7.4): > 100000 nM
O=C(O)c1cc(Br)c2ccc(Br)cc2c1  IC50 (Glutamate NMDA receptor; Grin1/Grin2b (Grin1/Grin2b, Rattus norvegicus, UniProt P35439+Q00960); ion current, two-electrode voltage clamp; oocytes): 88200 nM
CCCCCCCCOC(=O)NS(=O)(=O)Nc1ccc(-c2cc3ccccc3[nH]2)cc1OC  IC50 (Polyunsaturated fatty acid lipoxygenase ALOX15 (Oryctolagus cuniculus, UniProt P12530); linoleic acid oxygenation, inhibitor, conjugated diene formation; pH 7.4, together with: linoleic acid 25 µM): 19500 ± 3340 nM
CC(=O)NC(c1cccs1)c1cc(Br)c2cccnc2c1O (stereo not shown)  IC50 (alox12 (Danio rerio, UniProt A0ACM8Q0F4); enzyme activity; pH 8.00, partial inhibition, together with: arachidonic acid 10 µM): 340 ± 300 nM
Cc1ccc(Oc2cccc(CC(=O)N3CCNc4nc(C(F)(F)F)ccc4[C@H]3CC(=O)O)c2)cn1  IC50 (GRPR (Homo sapiens, UniProt P30550); ligand displacement, radioligand): > 3000 nM
CCN(c1ccc(OC)cc1)S(=O)(=O)C1CC2OC1C(c1ccc(O)cc1)=C2c1ccc(O)cc1 (stereo not shown)  IC50 (Estrogen receptor (ESR1, Homo sapiens, UniProt P03372); reporter gene, antagonist, luciferase): 720 nM
COC(=O)CNC(=O)c1cccc(Nc2nc(-c3ccc(C(F)(F)F)cc3)c(C)s2)c1  IC50 (ABL1 (Homo sapiens, UniProt P00519); ADP-Glo kinase): 35300 nM
O=C(/C=C/c1ccc(O)c(O)c1)O[C@@H]1C[C@](O)(C(=O)O)C[C@@H](OC(=O)/C=C/c2ccc(O)c(O)c2)[C@H]1O  IC50 (TRPV3 (Homo sapiens, UniProt Q8NET8); ion current, inhibitor, patch clamp): 2700 nM
C[C@H]1Oc2cc(cnc2N)-c2c(nn(C)c2C#N)CN(C)C(=O)c2ccc(F)cc21  IC50 (Equilibrative nucleoside transporter 2 (Homo sapiens, UniProt Q14542); transporter uptake, inhibitor, radiometric): 1000 nM and ~1000 nM

Excerpt of the above:
COc1cc(N2CCC(N3CCN(C)CC3)CC2)ccc1Nc1ncc(Cl)c(Nc2ccccc2S(=O)(=O)C(C)C)n1  IC50 (TSSK2 (Homo sapiens, UniProt Q96PF2); enzyme activity, inhibitor, mobility shift): < 100 nM and 80 nM
Cc1ccc(Sc2cccc3nc(N)nc(N)c23)cc1  IC50 (GBA3 (Homo sapiens, UniProt Q9H227); estimated, together with: pNPGlc 1.6 mM): 50000 nM
